{"data": "Published values pooled from the literature", "note": "Lines come from different studies, so protocols differ. Values joined by “and” are separate records of one study, mostly repeats; a detail may differ."}
{"SMILES": "COc1ccnc(-c2nc3ccccn3c2Nc2ccc(F)cc2)c1", "organism": "Leishmania infantum", "assay": "parasite growth", "conditions": "intracellular, amastigote", "IC50": "6.77 µM and 3.17 µM"}
{"SMILES": "CN(C)c1ccc(O)c2c1C[C@H]1C[C@H]3[C@H](N(C)C)C(O)=C(C(N)=O)C(=O)[C@@]3(O)C(O)=C1C2=O", "organism": "Mycobacteroides abscessus", "assay": "microbial growth, resazurin", "test system": "ATCC19977", "IC50": "28.5 µg/mL"}
{"SMILES": "Fc1ccc(Nc2c(-c3cccc(F)n3)nc3ccccn23)cc1", "organism": "Leishmania infantum", "assay": "parasite growth", "conditions": "intracellular, amastigote", "IC50": "30.1 µM and > 64 µM"}
{"SMILES": "CC(C)[C@@H]1NC(=O)[C@@H](Cc2c[nH]c3ccccc23)NC(=O)[C@H]([C@@H](C)O)NC(=O)[C@@H](CCCCN)NC(=O)[C@H](Cc2ccccc2)NC(=O)[C@@H](Cc2ccccc2)NC1=O", "organism": "Balamuthia mandrillaris", "assay": "parasite growth, ATP luminescence", "IC50": "> 20 µM"}
{"SMILES": "Fc1ccc(Nc2c(-c3ccccn3)nc3c(F)cccn23)cc1", "organism": "Leishmania infantum", "assay": "parasite growth", "conditions": "intracellular, amastigote", "IC50": "24.5 µM and > 64 µM"}
{"SMILES": "CC(C)[C@@H]1NC(=O)[C@@H](Cc2c[nH]cn2)NC(=O)[C@H]([C@@H](C)O)NC(=O)[C@@H](CCCN)NC(=O)[C@H](Cc2ccccc2)NC(=O)[C@@H](Cc2ccccc2)NC1=O", "organism": "Balamuthia mandrillaris", "assay": "parasite growth, ATP luminescence", "IC50": "12.1 µM"}
{"SMILES": "CN(C)c1cc(NC(=O)c2ccccn2)c(O)c2c1C[C@H]1C[C@H]3[C@H](N(C)C)C(O)=C(C(N)=O)C(=O)[C@@]3(O)C(O)=C1C2=O", "organism": "Mycobacteroides abscessus", "assay": "microbial growth, resazurin", "test system": "ATCC19977", "IC50": "> 128 µg/mL"}
{"SMILES": "CCCCCCCCCCCCCCCCOP(=O)([O-])OCC[N+](C)(C)C", "organism": "Leishmania infantum", "assay": "parasite growth", "test system": "mouse Macrophage", "conditions": "intracellular, amastigote", "IC50": "~5 µM"}
{"SMILES": "CC(C)[C@H](N)C(=O)N[C@H](Cc1ccccc1)C(=O)N[C@@H](Cc1ccccc1)C(=O)N[C@H](CCCN)C(=O)N[C@H](C(=O)N[C@H](CCCNC(=N)N)C(=O)O)[C@@H](C)O", "organism": "Balamuthia mandrillaris", "assay": "parasite growth, ATP luminescence", "conditions": "72 h", "IC50": "> 20 µM"}
{"SMILES": "COc1ccc(-c2nc3ccccn3c2N(C)c2ccc(F)cc2)nc1", "organism": "Leishmania infantum", "assay": "parasite growth", "conditions": "intracellular, amastigote", "IC50": "0.76 µM and 0.35 µM"}
{"SMILES": "CN(C)c1cc(NC(=O)Cc2ncccn2)c(O)c2c1C[C@H]1C[C@H]3[C@H](N(C)C)C(O)=C(C(N)=O)C(=O)[C@@]3(O)C(O)=C1C2=O", "organism": "Mycobacteroides abscessus", "assay": "microbial growth, resazurin", "test system": "ATCC19977", "IC50": "0.91 µg/mL"}
{"SMILES": "CC(C)[C@@H]1NC(=O)[C@@H](CCCNC(=N)N)NC(=O)[C@H]([C@@H](C)O)NC(=O)[C@@H](CCCN)NC(=O)[C@H](Cc2ccccc2)NC(=O)[C@@H](C)NC1=O", "organism": "Balamuthia mandrillaris", "assay": "parasite growth, ATP luminescence", "conditions": "72 h", "IC50": "> 20 µM"}
{"note": "Repeated from above:"}
{"SMILES": "CCCCCCCCCCCCCCCCOP(=O)([O-])OCC[N+](C)(C)C", "organism": "Leishmania infantum", "assay": "parasite growth", "test system": "mouse Macrophage", "conditions": "intracellular, amastigote", "IC50": "~5 µM"}
